Assay results of several laboratories.
Each numbered part is a random draw from the data of one study; scales do not carry over between parts. “And” joins repeats or separate records; there may be more than shown.
Chain of UniProt Q96SW2 (whole entry, looked up): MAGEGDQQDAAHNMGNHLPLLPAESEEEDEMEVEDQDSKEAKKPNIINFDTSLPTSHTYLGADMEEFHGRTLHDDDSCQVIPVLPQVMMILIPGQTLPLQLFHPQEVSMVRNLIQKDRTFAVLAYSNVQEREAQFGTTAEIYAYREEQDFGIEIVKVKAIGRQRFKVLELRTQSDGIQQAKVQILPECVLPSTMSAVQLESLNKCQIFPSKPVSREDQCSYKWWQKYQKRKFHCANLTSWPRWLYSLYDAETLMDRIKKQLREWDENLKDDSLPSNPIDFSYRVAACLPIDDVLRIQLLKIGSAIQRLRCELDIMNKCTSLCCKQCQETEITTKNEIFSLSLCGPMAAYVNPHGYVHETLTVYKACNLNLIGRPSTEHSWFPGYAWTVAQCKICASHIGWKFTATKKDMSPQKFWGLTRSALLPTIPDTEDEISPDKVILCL
Chain of UniProt Q15569 (whole entry, looked up): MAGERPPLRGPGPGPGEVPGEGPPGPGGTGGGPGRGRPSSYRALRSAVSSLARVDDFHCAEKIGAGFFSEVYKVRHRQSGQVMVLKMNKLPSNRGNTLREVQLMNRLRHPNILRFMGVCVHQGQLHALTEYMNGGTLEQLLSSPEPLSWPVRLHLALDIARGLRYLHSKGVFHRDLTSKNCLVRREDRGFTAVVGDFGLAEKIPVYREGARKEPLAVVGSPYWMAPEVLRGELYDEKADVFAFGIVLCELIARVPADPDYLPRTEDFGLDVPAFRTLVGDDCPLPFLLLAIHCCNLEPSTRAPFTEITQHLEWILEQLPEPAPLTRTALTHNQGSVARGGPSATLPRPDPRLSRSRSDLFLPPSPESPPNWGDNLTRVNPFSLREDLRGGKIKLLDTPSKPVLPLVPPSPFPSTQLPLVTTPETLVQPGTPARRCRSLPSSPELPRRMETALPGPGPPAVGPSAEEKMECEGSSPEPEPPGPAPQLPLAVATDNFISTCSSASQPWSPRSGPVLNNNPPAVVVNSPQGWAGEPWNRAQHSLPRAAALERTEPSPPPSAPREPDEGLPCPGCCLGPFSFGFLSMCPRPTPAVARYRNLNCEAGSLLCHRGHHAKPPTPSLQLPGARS
Chain of UniProt P21127 (whole entry, looked up): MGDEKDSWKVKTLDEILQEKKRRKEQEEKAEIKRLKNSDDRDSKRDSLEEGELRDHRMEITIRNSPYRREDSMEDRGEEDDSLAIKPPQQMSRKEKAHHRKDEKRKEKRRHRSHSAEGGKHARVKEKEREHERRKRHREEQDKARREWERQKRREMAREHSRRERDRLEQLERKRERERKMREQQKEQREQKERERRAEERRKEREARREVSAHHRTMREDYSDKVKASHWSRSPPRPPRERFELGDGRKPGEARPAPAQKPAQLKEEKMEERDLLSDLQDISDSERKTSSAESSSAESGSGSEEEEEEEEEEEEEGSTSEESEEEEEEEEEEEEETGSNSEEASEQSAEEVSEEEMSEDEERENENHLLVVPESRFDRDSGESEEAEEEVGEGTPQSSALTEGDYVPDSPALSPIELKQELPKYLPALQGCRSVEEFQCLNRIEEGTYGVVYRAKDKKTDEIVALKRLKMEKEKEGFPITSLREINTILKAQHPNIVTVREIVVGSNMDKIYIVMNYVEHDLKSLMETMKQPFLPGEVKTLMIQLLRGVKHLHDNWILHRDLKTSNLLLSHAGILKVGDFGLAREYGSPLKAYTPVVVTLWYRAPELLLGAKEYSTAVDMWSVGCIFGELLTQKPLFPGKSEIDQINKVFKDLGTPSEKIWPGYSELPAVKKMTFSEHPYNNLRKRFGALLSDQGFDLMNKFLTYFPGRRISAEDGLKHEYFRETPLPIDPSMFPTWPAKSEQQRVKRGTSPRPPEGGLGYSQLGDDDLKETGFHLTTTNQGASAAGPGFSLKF
Chain of UniProt Q8NFD2 (whole entry, looked up): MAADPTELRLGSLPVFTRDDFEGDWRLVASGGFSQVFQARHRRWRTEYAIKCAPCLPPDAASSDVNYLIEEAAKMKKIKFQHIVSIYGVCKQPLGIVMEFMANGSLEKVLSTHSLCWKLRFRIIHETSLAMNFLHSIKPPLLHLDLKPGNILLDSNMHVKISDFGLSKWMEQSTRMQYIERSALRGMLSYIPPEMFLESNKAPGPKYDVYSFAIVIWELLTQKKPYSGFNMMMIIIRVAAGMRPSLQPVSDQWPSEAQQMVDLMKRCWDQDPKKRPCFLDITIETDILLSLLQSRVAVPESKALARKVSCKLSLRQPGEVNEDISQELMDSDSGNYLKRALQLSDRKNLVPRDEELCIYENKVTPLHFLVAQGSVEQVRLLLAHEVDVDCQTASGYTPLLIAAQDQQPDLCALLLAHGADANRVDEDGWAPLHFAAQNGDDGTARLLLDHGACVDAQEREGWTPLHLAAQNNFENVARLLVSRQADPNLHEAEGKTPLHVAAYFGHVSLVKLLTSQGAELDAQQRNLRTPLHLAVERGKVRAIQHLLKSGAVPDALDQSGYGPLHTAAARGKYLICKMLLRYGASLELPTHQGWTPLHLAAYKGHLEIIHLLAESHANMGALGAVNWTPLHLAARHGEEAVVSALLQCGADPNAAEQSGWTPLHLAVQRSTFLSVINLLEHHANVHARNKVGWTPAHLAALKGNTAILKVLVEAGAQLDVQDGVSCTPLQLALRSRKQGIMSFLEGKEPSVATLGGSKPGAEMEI
Chain of UniProt P25098 (whole entry, looked up): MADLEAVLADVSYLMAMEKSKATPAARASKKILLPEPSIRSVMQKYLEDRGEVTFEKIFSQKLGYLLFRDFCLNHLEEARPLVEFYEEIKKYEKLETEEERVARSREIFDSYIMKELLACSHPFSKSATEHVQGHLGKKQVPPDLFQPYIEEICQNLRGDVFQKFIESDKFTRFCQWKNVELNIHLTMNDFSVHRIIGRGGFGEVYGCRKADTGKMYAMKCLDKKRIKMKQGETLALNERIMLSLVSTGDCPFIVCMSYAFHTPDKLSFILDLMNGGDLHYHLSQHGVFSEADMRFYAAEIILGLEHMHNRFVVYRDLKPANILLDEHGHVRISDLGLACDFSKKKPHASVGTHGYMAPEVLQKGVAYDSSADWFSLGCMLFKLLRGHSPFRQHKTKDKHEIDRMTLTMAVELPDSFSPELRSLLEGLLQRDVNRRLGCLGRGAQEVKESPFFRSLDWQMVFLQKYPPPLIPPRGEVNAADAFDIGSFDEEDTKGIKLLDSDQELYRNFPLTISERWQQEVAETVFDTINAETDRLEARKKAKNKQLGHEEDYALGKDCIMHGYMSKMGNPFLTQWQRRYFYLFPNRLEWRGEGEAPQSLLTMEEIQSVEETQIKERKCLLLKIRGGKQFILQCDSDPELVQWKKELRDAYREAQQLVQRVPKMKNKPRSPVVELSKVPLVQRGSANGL

Study 1
SMILES: CCN1/C(=C/C=C2\CCCC(/C=C/C3=[N+](CC)c4ccccc4C3(C)C)=C2NCCCCCCCCN2CCC(Nc3nc4ccccc4n3Cc3ccc(F)cc3)CC2)C(C)(C)c2ccccc21
Cell line: U-87 MG
Concentration: concentration not given
Reference: DMSO
Measurement: log2 fold change
item: ESPNL mRNA: -1.35
item: EPHA4 mRNA: -1.45
item: MIS18BP1 mRNA: -1.2
item: RECK mRNA: -0.955
item: GOLGB1 mRNA: 0.914
item: ELL2 mRNA: 0.909
item: ITGB8 mRNA: -2.35
item: HMGB2 mRNA: -1.35
item: UHRF1BP1 mRNA: 0.845
item: RNF114 mRNA: 0.83
item: CDC25A mRNA: -1.72

Study 2
Compound: COc1cc(-c2nc3ccc(C(=O)NCCCN(C)C)cc3n2C2CCC2)cc(OC)c1OC
Effect on: binding
Method: competition with immobilised ligand
Concentration: 1 µM
Measurement: remaining binding
CAMK2B (Homo sapiens, UniProt Q13554): 91%
STK33 (Homo sapiens, UniProt Q9BYT3): 100%
AKT3 (Homo sapiens, UniProt Q9Y243): 91%
TESK1 (Homo sapiens, UniProt Q15569): 98%
ANKK1 (Homo sapiens, UniProt Q8NFD2): 64%
SLK (Homo sapiens, UniProt Q9H2G2): 40%
PDGFRA (Homo sapiens, UniProt P16234): 92%
CDK11B (Homo sapiens, UniProt P21127): 96%
EPHA3 (Homo sapiens, UniProt P29320): 95%
TNNI3K (Homo sapiens, UniProt Q59H18): 92%
GRK2 (Homo sapiens, UniProt P25098): 77%

Study 3
Structure (SMILES): C[C@@H]1CN(c2ccc(-c3cc(C(=O)NCCOCCOCCOCCOCCNC(=O)/C=C/c4[nH]cc(C(=O)N[C@@H](CC(N)=O)c5ccc(F)c(Cl)c5)c4-c4ccc(Cl)cc4F)ccc3F)cc2NC(=O)c2c[nH]c(=O)cc2C(F)(F)F)C[C@H](C)N1C
Effect on: thermal unfolding
Method: differential scanning fluorimetry
Concentration: 5.5 µM
Reading: higher = more unfolded
Measurement: SYPRO Orange fluorescence
WDR5: WD repeat-containing protein 5 (WDR5, Homo sapiens, UniProt P61964)
DCAF1: DDB1- and CUL4-associated factor 1 (DCAF1, Homo sapiens, UniProt Q9Y4B6)
Chain of UniProt Q9Y4B6 (whole entry, looked up): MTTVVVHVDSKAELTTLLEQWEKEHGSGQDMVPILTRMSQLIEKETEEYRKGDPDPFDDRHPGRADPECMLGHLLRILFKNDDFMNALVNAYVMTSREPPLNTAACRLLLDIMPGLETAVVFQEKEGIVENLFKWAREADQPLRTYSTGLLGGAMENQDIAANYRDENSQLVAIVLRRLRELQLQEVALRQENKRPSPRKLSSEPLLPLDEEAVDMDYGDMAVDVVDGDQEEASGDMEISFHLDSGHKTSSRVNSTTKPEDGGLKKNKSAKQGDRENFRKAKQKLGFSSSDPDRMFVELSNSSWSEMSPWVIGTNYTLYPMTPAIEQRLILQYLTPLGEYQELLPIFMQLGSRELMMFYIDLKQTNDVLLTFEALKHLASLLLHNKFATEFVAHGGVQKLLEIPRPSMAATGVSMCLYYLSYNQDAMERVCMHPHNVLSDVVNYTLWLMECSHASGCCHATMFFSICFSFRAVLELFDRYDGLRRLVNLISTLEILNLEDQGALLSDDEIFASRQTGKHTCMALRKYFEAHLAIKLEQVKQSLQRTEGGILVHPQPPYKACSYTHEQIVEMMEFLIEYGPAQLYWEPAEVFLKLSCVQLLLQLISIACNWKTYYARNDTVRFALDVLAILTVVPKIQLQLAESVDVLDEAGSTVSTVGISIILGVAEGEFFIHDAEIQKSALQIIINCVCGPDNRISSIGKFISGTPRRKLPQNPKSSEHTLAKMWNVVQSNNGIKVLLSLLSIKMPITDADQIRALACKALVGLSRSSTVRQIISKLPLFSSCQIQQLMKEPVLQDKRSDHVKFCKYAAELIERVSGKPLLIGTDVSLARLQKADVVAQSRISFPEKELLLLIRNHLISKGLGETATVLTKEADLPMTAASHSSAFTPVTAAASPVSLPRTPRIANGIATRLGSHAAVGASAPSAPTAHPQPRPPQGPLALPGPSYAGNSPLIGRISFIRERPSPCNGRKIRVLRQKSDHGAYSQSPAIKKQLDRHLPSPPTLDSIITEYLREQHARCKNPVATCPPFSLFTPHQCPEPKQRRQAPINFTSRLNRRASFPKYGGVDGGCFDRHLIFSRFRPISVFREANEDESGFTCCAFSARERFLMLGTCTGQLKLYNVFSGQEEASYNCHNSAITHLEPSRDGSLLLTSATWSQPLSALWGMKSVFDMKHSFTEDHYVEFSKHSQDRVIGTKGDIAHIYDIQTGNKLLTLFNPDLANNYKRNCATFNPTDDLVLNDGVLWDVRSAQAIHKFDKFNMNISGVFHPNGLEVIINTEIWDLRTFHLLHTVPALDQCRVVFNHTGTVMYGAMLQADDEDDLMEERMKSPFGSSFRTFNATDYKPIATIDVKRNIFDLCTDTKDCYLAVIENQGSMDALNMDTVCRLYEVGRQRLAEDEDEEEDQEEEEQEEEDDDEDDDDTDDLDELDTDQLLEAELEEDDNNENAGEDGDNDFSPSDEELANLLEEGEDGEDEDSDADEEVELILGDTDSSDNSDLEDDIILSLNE
WDR5; 84.01 °C: 50600 a.u.
WDR5; 86.61 °C: 53600 a.u.
DCAF1; 67.81 °C: 58300 a.u.
DCAF1; 30.4 °C: 9550 a.u.
WDR5; 49.2 °C: 16100 a.u.
WDR5; 88.61 °C: 52600 a.u.
WDR5; 62.21 °C: 14800 a.u.
WDR5; 50.4 °C: 16500 a.u.

Study 4
SMILES: Cc1ccc(O)c(C)c1-c1cnc2[nH]c(-c3cnc(N4CCC5(CC4)CC(N4CCN(c6ccc(N[C@H]7CCC(=O)NC7=O)cc6F)CC4)CO5)nc3)cc2c1C#N (single isomer, unassigned)
Measurement: inhibition
RKO; cell proliferation; 4.572 nM: -2.97% and 1.31%
PKMYT1 (Homo sapiens, UniProt Q99640); 0.00412 µM: 32%
NCI-H1568; cell growth; 10000 nM: 89%
HCC1569; CDK1 phosphorylation, Jess capillary immunoassay, item: CDK1 phospho-Thr14; 100 nM, 2 h: 35.6%
SW1463; cell proliferation; 4.57 nM: -1.24% and 1.06%
Protein cereblon (CRBN, Homo sapiens, UniProt Q96SW2); binding; 30000 nM: 67.1% and 67.2%
HCC1569; automated immunoblotting, item: CDK1 phospho-Thr14; concentration not given, 0 h after washout: 66.5%
MDA-MB-436; cell proliferation; 3333.33 nM: 94.8%
KLE; cell proliferation; 370.37 nM: 64.2%

A few entries again (study 2):
EPHA3 (Homo sapiens, UniProt P29320): 95%
TESK1 (Homo sapiens, UniProt Q15569): 98%
ANKK1 (Homo sapiens, UniProt Q8NFD2): 64%
AKT3 (Homo sapiens, UniProt Q9Y243): 91%
